Experimental data collected from several papers.
Lines come from different studies, so protocols differ. ± gives the spread as reported.

SMILES | assay | test system | conditions | Tmax [h]
OC1(C(F)(F)F)CCN(c2nc(Nc3ccnc(C(F)(F)F)c3)nc(-c3cccc(C(F)(F)F)n3)n2)C1 (centres unmarked) | – | Sprague-Dawley rat, both sexes, plasma | oral gavage, 5 mg/kg | 6.33 ± 0.816
COc1ccc([C@@H]2CC(=O)c3c(O)cc(O[C@@H]4O[C@H](CO)[C@@H](O)[C@H](O)[C@H]4O[C@@H]4O[C@@H](C)[C@H](O)[C@@H](O)[C@H]4O)cc3O2)cc1O | LC-MS/MS | Sprague-Dawley rat, male, obese, plasma | oral, 100 mg/kg | 2.33 ± 1.53
Cc1cc(-c2ccc(NC(=S)Nc3ccc(CNC(=O)CCC(C(=O)O)N4CCN(CC(=O)O)CCN(CC(=O)O)CC4)cc3)c(C)c2)ccc1/N=N/c1ccc2c(S(=O)(=O)O)cc(S(=O)(=O)O)c(N)c2c1O (centres unmarked) | dynamic PET/CT | Sprague-Dawley rats female, liver | intracisternal infusion, median | 1.83
Cc1cc2c(cc1O)C=C1C=CC(=O)C(C)(C)[C@H]1CC2 | – | Sprague-Dawley rat male, plasma | iv, 2 mg/kg | 0.08
O=C(Nc1ccc(OC(F)(F)F)cc1)NC1CCN(C(=O)C2CC2)CC1 | – | Sprague-Dawley rat, male, whole blood | oral, 0.1 mg/kg | 4
CCCC[C@H](OC(C)=O)c1ccccc1C(=O)O | – | Sprague-Dawley rats, both sexes, whole blood | intravenous, 20 mg/kg single dose | 0.017
O=C(O)/C=C\c1cc2ccoc2cc1O[C@@H]1O[C@H](CO)[C@@H](O)[C@H](O)[C@H]1O | – | rat, plasma | oral, 500 mg/kg Eu + 217 mg/kg Pc extract, dosed as combined Eu and Pc extracts | 2.83 ± 1.89
C=C(NC(=O)c1csc(-c2nc3c(cc2O)-c2nc(cs2)C(=O)NC(C(C)O)C(=O)NC(=C(C)OC)c2nc(cs2)C(=O)NC2c4nc(cs4)C(=O)NC(COC(=O)c4c5c6c(cccc6n4O)COC(=O)C(OC4CC(C)(O)C(N(C)C)C(C)O4)C2OC5)c2nc-3cs2)n1)C(N)=O (centres unmarked) | – | Sprague-Dawley rat, male, plasma | intravenous infusion, 6 mg/kg, multiple doses, day 1 | 0.08

Excerpt of the above:
SMILES | assay | test system | conditions | Tmax [h]
OC1(C(F)(F)F)CCN(c2nc(Nc3ccnc(C(F)(F)F)c3)nc(-c3cccc(C(F)(F)F)n3)n2)C1 (centres unmarked) | – | Sprague-Dawley rat, both sexes, plasma | oral gavage, 5 mg/kg | 6.33 ± 0.816
